Measurements from different studies.
Each numbered part is a random draw from the data of one study; scales do not carry over between parts.

Set 1
Target: UBE2B UBC core domain (UniProt P63146)
UniProt P63146, sequence (whole entry, looked up): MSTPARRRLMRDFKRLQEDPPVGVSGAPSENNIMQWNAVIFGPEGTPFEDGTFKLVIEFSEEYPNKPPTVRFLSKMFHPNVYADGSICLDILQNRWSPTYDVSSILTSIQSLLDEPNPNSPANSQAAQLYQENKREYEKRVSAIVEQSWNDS
Method: yeast two-hybrid
Medium: yeast
Notes: mostly zero background
Relative to: not given
Reading: higher = stronger interaction
Endpoint: lacZ reporter activity
B1: TRIM74 RING domain (UniProt Q86UV6); chain SLLELEDWLQCPICLEVFKESLMLQCGHSYCKGCLVSLSYHLDTKVRCPMCWQVVDGSSSLP
B2: RNF32 RING domain (UniProt Q9H0A6); chain VQALRRETHECSICLAPLSAAGGQRVGAGRRSREMALLSCSHVFHHACLLALEEFSVGDRPPFHACPLCRSCYQKKILEC
B3: SHPRH RING domain (UniProt Q149N8); chain KTSGGVNPEPCPICARQLGKQWAVLTCGHCFCNECISIIIEQYSVGSHRSSIKCAICRQTTSHKEISY
B4: UBE4B RING domain (UniProt O95155); chain KNARAEIDYSDAPDEFRDPLMDTLMTDPVRLPSGTIMDRSIILRHLLNSPTDPFNRQTLTESMLEPVPELKEQIQAWMREKQNSDH
B5: RNF130 RING domain (UniProt Q86XS8); chain DKETDPDFDHCAVCIESYKQNDVVRILPCKHVFHKSCVDPWLSEHCTCPMCKLNILKALGIV
B6: RFPL3 RING domain (UniProt O75679); chain MAALFQEASSCPVCSDYLEKPMSLECGCTVCLKCINSLQKEPHGEDLLCCCCSMVSQRNKIRP
B7: RNF10 RING domain (UniProt Q8N5U6); chain VRICSHEVPSCPICLYPPTAAKITRCGHIFCWACILHYLSLSEKTWSKCPICYSSVHKKDLKS
SNNDLASLFECPVCFDYVLPPILQCQSGHLVCSNCRPKLTCCPTCRGPLGSIRNLA (SIAH1 RING domain (UniProt Q8IUQ4)): 0
B1 (TRIM74 RING domain): 0
B2 (RNF32 RING domain): 0
VPADASPDSKCPICLDRFDNVSYLDRCLHKFCFRCVQEWSKNKAECPLCKQPFDSIFHSV (TOPORS RING domain (UniProt Q9NS56)): 0
B3 (SHPRH RING domain): 0
PLRRLQEEKLCKICMDRHIAVVFIPCGHLVTCKQCAEAVDRCPMCSAVIDFKQRVF (BIRC8 RING domain (UniProt Q96P09)): 0
B4 (UBE4B RING domain): 0
B5 (RNF130 RING domain): 0
B6 (RFPL3 RING domain): 0
B7 (RNF10 RING domain): 0

Set 2
Target: Sal-like protein 4, full length isoform B (SALL4, Homo sapiens, UniProt Q9UJQ4-2, residues 1-616)
Method: universal PBM
Molecule type: double-stranded DNA, one strand shown
Medium: in vitro
Tested at: not given
Notes: 8-mer, flanks averaged, mean of replicates
Reading: higher = stronger binding
Endpoint: E-score
Construct (chain): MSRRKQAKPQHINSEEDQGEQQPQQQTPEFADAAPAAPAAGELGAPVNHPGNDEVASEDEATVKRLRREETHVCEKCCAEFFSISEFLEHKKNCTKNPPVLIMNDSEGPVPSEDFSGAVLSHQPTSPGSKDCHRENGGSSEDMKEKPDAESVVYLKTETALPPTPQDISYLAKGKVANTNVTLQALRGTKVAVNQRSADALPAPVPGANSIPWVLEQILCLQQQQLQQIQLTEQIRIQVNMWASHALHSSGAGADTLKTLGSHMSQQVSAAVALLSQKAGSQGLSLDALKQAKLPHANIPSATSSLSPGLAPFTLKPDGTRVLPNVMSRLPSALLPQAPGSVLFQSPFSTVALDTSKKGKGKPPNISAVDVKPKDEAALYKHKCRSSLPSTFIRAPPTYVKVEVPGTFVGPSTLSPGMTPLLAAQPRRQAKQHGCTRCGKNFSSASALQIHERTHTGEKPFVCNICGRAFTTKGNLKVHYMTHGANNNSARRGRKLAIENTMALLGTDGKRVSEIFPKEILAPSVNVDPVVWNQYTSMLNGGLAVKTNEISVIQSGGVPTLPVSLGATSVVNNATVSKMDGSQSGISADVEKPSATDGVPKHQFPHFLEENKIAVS
GCCTAACA: -0.104
ACCAAGCA: -0.125
CCCCCTGC: -0.217
ACGTGGAG: -0.137
ATGGGGGG: -0.0965
CGAGCGTA: 0.0498
ACCAACCG: -0.218
TGACCCCA: -0.194
CTCCGAGA: -0.188
CGGGTGGC: -0.332
GCTTTCGA: -0.121
TACCCAGA: 0.0677
CAACTAAA: 0.2
ACCATGTA: 0.104
CGCCCCAA: -0.17
AGCTTATC: -0.051
AAGAAAAC: 0.0604
GCGGTTGA: -0.165
CGAAGACC: -0.176

Set 3
Target: RING finger protein unkempt homolog, zinc fingers 1-6, GST-SBP tag (UNK, Homo sapiens, UniProt Q9C0B0, residues 30-357)
UniProt Q9C0B0, sequence (30-357, looked up): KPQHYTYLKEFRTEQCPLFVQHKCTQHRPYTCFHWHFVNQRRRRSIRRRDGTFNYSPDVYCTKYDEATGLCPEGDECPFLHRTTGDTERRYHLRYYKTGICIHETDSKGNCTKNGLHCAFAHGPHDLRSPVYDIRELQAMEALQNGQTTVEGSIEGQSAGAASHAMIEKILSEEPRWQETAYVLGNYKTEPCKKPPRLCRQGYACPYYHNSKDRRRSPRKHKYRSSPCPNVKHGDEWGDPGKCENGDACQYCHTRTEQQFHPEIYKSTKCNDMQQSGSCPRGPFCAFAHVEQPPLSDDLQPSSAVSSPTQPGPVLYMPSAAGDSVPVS
Method: RNA Bind-n-Seq
Molecule type: RNA
Medium: in vitro
Tested at: not given
Notes: RNA with constant flanks, human and mouse sites, ends assumed
Relative to: input RNA pool
Reading: higher = stronger binding
Endpoint: bound/input enrichment
All sequences stand within: GGGAGUUCUACAGUCCGACGAUC … CAACAGAGGAUUGAGCAUCA
UUUACUGAAGGAUGUAUUAAAAAGUUUCCAUUCUGUCAAGUAAGUACAGAAGAAGGCAAAGGGAAGAUCUGGUGGAAUCUUCGAAAAACCUGCUACAGUAUUGUUGAGCACAACUGGUUU: 0.331 ratio
GAUGGAGUUUUAUAUGUAAAGCUCAGGGCAGGACAGCUCUCCUACAAAGAAGACCCAAUGGGGUGGCAGAGUUUGUUGGCACAAACUGUUGCUAAUAGGAACUCUGAAGCCCGGGCUUUC: 0.114 ratio
GGUCCAGAGGCAGACCAGCCUGAGGCUGCUAAAUUCCGCCAGUUCUGGGGAUCCCGCUCGGAGCUUCGGCGUUUCCAGGACGGAGCCAUUCGGGAAGCUGUGGUCUGGGAGGCAGCCUCU: 0.163 ratio
CUUUAUGGGCCUCGAAGAGUUGAAAUAAUGGAAGAAGAAAGUGAACAGUAAUCUUCAAUUUAGCUAUUUAUGCUUAGGUGUGAAUGUUUUUGUUGUUGUUGUUGAACAUUUCUAUAAUCU: 0.283 ratio
AUGAUUACUGUAGAUAUUAUUCCUUCUGGUUGGAAUUCAACUGAUGGGAAAAAUGAUAAAGCUAAAAGUGCACCUUCAAGAGACCCAGAAAAACUUCAGAAAAUCAAAGAAAGCCUCCUU: 0.158 ratio
AGUCAGCACAGCCGCGGCGGCUGCAGCAGCGAGAGUUCUAGGGUUGCCCUUAAUUGCUGUAGUAACCUGGGUCCGGGGCCUCGGUGGUGCUCCGAUGUCCCUCACCCACCCCUGAAGAUC: 0.1 ratio
AGCGAGGCCCCCAAUCCAGAGCCCCGGGCCAGGUCAAGAUCCACCUCCAAAUCCAAACCCAAUGUCCCGGCAGAGUCGCGCUCCAGGUCAAAAUCGGCUUCAAAAACACGCUCUCGGUCC: 0.109 ratio
CAUGUAUUUGAGUGCAACUUAGAGAGCAGUGUGGAGAGCAUCAUCUCACCAAAGGUGAAGAUGGCGCUGCGGACGUCAGGACACCUUCUCCUGGGAGUAGUCCGCAUCUAUCACAGGAAA: 0.184 ratio
UUAAAUACACGAAGUUACAUUUUUGUUCAUGUUUCAUUGUCCAGAAAGCAGCAGGAAACUAUUCAGUUGUGAUCAAGCAGGAAAAAAGAAACACCAACAGUUGCCAGUGUUUUUGCUUUU: 0.17 ratio
CUUGUUUAAAGCAAAACAAGACCUUGAAAGGUCAAUCAUAUUAAAGCUGGUUUGAUUAUUAAUAGUUAUCUUUUAGGAAGAAGCUUUUUUCCCUAUGUAAGAUGUCAUACUGCAGAUUUA: 7.43 ratio
ACUGGUUUUGGAUUAGGAAUUGUUUUCUCACUUACCUUCUUUAAAAGAAGAAUGUGGCCAUUAGCCUUCGGUUCUGGCAUGGGAUUAGGAAUGGCUUAUUCCAACUGUCAGCAUGAUUUC: 0.622 ratio

Set 4
Target: RNA binding protein fox-1 homolog 2, RRM domain, GST-SBP tag (RBFOX2, Homo sapiens, UniProt O43251-10, residues 100-194)
Method: RNA Bind-n-Seq
Molecule type: RNA
Medium: in vitro
Tested at: 365 nM
Notes: natural RNA segment, single round, ends assumed
Relative to: no-protein control
Reading: higher = stronger binding
Endpoint: RBNS enrichment (R)
All sequences stand within: GGGAGUUCUACAGUCCGACGAUC … UGGAAUUCUCGGGUGCCAA
Residues (chain): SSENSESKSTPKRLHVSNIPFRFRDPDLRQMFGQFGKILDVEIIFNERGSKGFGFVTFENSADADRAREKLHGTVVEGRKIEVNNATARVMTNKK
GGAGCGGAGGGAGGACCAGUUGCAUGUGUUUCUGCCCACUCAUUUUGAGCAGCCAUAUUAUAAAAUGGAUCAUCAGAGCUGAGUGACAACACGAGAGUGGUACUGGUUUC: 1.69
UAUUUUCAGGAUCUGCUAUAAGGUUGAAAUUUAGCCCAGCUCUAGGCAUUUUACAAAUUAUUUUUCAAGCAGUCAUUCUUGAUUGUUUGACUUUUUUUUUUAAAUUAAAG: 0.349
GGCUACAUUUGAGGACAGGAAUAUGUUGAGCCUGAUUUUCCUGGUGUGUGUAAAAUAUUUCCUAGGAAUAAAUUAGGCACUUUUUAGAAGCAAUGUUAAAUCAUUCAGGU: 0.522
CUUGCUCUGAUGCUUGCCUCUGGGCCUCUCCAUGCCCAAGGUGGUCUUUCAUCCUUGACAGGCUGGUAAUGUGCUGGCCACCUCCAGCUCCUGCAUCGAGUCUGUAAACC: 0.33
UGAGAUAGAUAGAUGGCAGAUAGAACAACAGACAGACAGAAGACAGGUAGGCAGCAGACAGACAGAUGACAGAUAGAUCUCCAUGGUAUGUUUUCCAUUUUCUUUUGUCA: 0.807
AGCUGGGCUGGCCCAGGCCAGUGCCACCUUUGUCCUCUCUUAACUCCAAGAAGUGCAAGUGAACUUGAUUGUUGGCCCUCCCUUGACCUUCCAUAAUAGUUCCCACCCCU: 0.324
UUGGCAAUAAUGUCAACACCAGAAAGCCUCCUCUGGAGAAUCUUACAGAGUGAUUGUAGUUUAAUACAGGAACACACAGGGCUGUGUAGCAUGAUACCAGGCCCAGGAGA: 3.27
CUGUCAGCGUUUGGCAUUUAAUCUUUUUGCCAUUUUAAUUUGCCUACUUACAUUGUGUUCAUAUAUUUUGAAAAGACUUCUCUACUUUACCGUGGUCCUCCGUUGUGAGU: 0.423
UGUGACCGUUUCGAUGUUGAUAAGAAGGUGAAUUUACUGUAGUGUUACCACCUUCUCCCCACUUGAUGGUUCUUGACUUUGUAAAAAUUUAAAUAAAUGAAUGUCUAUAC: 0.441
GAAACAGGCCCAGAAGAACCUCAGGAGUAACCCUGGGCAUUCCUCCCCUACCCAUUUUCUCUGGAGGUGUCCAGCCUCUUCCAACCCCCUCCCCAACUCUAGGGGAGAGC: 0.341
AUGCUCCCACCUGUCCAGGUAUUAAUGGAAUCCCCAGCAGGUGUCUAGAUGUAUGGGCAGGGCUGCACCAAGGCCUGGGCAUGCUUCCUCAGGGUAUCAAAGGAGCCCUU: 1.42
UGGUUUUAUCUAAUAGUUUUACUAUGGAAAUCGCCUUUUGAUAUUAAAGCCAGAUUUUAGAGGUUUGAUAUGUUUGGUCUCAGGAGCUCAAAAGAAGUAGCUUUUUCCAG: 0.704

Set 5
Target: Histone acetyltransferase KAT6A, winged helix 2, GST fusion (KAT6A, Homo sapiens, UniProt Q92794, residues 85-181)
Method: protein binding microarray
Molecule type: double-stranded DNA, one strand shown
Medium: in vitro
Tested at: not given
Notes: 8-mer, flanks averaged, mean of 2 arrays, mostly near background
Relative to: not given
Reading: higher = stronger binding
Endpoint: E-score
Construct (chain): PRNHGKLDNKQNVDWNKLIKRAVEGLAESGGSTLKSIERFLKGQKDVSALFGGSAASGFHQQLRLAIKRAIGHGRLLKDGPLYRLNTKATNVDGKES
ATCGACGG: -0.167
AAGTCCCC: -0.117
GCCCTACA: -0.0495
AAGGGTAT: -0.103
GGGGTCAC: 0.00148
CTTTACAA: 0.0115
GTTGTGCA: -0.0638
CTAATAAC: -0.0547
AGCGCGAA: 0.209
ATCTTCTC: -0.0484
AGCCGTAA: -0.0199
CTTGTTCC: 0.0281
CCGGACTA: -0.0183
CACTGTAG: 0.12
CAAGGTCA: 0.0046
CCCACTTC: 0.0418
GTACCGCA: 0.223
AAAATTAG: 0.256
CGCGCTCC: 0.231
CGTTGTAG: 0.0972
GTAAGGGA: -0.215
CATTAGCC: -0.121
CTTAGTGC: 0.121

A few entries again (set 2):
ACCATGTA: 0.104
CGCCCCAA: -0.17
AGCTTATC: -0.051
AAGAAAAC: 0.0604
GCGGTTGA: -0.165
CGAAGACC: -0.176
